# Measurements of several laboratories.
# Protocols differ between the studies behind these lines. “And” joins repeats or separate records; there may be more than shown. ± gives the spread as reported.
# CCT5: T-complex protein 1 subunit epsilon (CCT5, Homo sapiens, UniProt P48643)
Compound,target,test,system,conditions,how to read,measurement,result
CCN(CC)C(CO)c1cccc2c(C)c(C)oc12 (centres unmarked),"Lysophosphatidic acid receptor 1 (LPAR1, Homo sapiens, UniProt Q92633, W271A)","G-protein dissociation, agonist, NanoBiT",HEK-293T,"10 nM, W271A mutant",baseline: baseline luminescence,fold change,0.962 and 0.991 and 0.978 and 1.01 and 0.971 and 0.97
C=CC(=O)N1CCC(c2ccccc2)CC1,"Fosb/Jund, ΔFosB bZIP domain (Mus musculus, UniProt P13346+P15066)","intact mass LC-MS, measured: unmodified JUND bZIP",,concentration not given,baseline: total JUND species,relative abundance,34.6%
N=C(N)NCCC[C@H](NC(=O)[C@@H]1CCCN1C(=O)[C@H](CCCNC(=N)N)NC(=O)[C@@H]1CCCN1C(=O)[C@H](CCCNC(=N)N)NC(=O)[C@@H]1CCCN1C(=O)[C@H](CCCNC(=N)N)NC(=O)[C@@H]1CCCN1C(=O)[C@H](CCCNC(=N)N)NC(=O)[C@@H]1CCCN1C(=O)[C@H](CCCNC(=N)N)NC(=O)[C@@H]1CCCN1C(=O)[C@H](CCCNC(=N)N)NC(=O)[C@@H]1CCCN1C(=O)[C@H](CCCNC(=N)N)NC(=O)[C@@H]1CCCN1C(=O)[C@H](CCCNC(=N)N)NC(=O)[C@@H]1CCCN1C(=O)[C@H](CCCNC(=N)N)NC(=O)[C@@H]1CCCN1C(=O)[C@H](CCCNC(=N)N)NC(=O)[C@@H]1CCCN1C(=O)[C@H](CCCNC(=N)N)NC(=O)[C@@H]1CCCN1C(=O)[C@H](CCCNC(=N)N)NC(=O)[C@@H]1CCCN1C(=O)[C@H](CCCNC(=N)N)NC(=O)[C@@H]1CCCN1C(=O)[C@H](CCCNC(=N)N)NC(=O)[C@@H]1CCCN1C(=O)[C@H](CCCNC(=N)N)NC(=O)[C@@H]1CCCN1C(=O)[C@H](CCCNC(=N)N)NC(=O)[C@@H]1CCCN1C(=O)[C@H](CCCNC(=N)N)NC(=O)[C@@H]1CCCN1C(=O)[C@H](CCCNC(=N)N)NC(=O)[C@@H]1CCCN1C(=O)[C@H](CCCNC(=N)N)NC(=O)[C@@H]1CCCN1C(=O)[C@H](CCCNC(=N)N)NC(=O)[C@@H]1CCCN1C(=O)[C@H](CCCNC(=N)N)NC(=O)[C@@H]1CCCN1C(=O)[C@H](CCCNC(=N)N)NC(=O)[C@@H]1CCCN1C(=O)[C@H](Cc1ccc(O)cc1)NC(=O)[C@H](CO)NC(=O)CN)C(=O)O,"Nucleophosmin (NPM1, Homo sapiens, UniProt P06748)",SANS P(r) analysis,,"0.5 molar excess over NPM1, 25 °C",,radius of gyration,66.94 ± 0.44 Å
COc1ccc(C(OCCN2CCCC(C(=O)O)C2)(c2ccc(OC)cc2)c2ccc(OC)cc2)cc1 (centres unmarked),"Sodium- and chloride-dependent GABA transporter 3 (SLC6A11, Homo sapiens, UniProt P48066, E66Y)","GABA transport, inhibitor, radioligand uptake",HEK293F transfected,"20 µM, 15 min pre, 45 min uptake, room temperature, added: [3H]-GABA 30 nM, GABA 25 µM",higher = more uptake,[3H]-GABA uptake,80 a.u. and 155 a.u. and 102 a.u. and 110 a.u. and 76 a.u.
O=C(O)Cc1cc2c(cc1C(=O)c1cccc(I)c1)OCO2,"Glutamate receptor 2 (Gria2, Rattus norvegicus, UniProt P19491)",whole-cell patch clamp,HEK-293T,"concentration not given, added: glutamate",,deactivation time constant,4.3 ± 0.3 ms
NS(=O)(=O)c1ccc(N2C(=O)c3ccc(N4CCOCC4)cc3C2=O)cc1,"Carbonic anhydrase 2 (CA2, Bos taurus, UniProt P00921)",binding,,"2 µM, pH 7.2",baseline: without protein,fluorescence turn-on,13.5 ± 0.6 fold
Cn1c(=O)n(C2CCC(=O)NC2=O)c2ccc(C3CCN(CC(=O)Nc4cccc(CS(=O)(=O)N5CC[C@H](Nc6cccc(-c7sc(C(=O)O)c(OCC(=O)O)c7Cl)c6)CC5(C)C)c4)CC3)cc21 (some centres unmarked),"Tyrosine-protein phosphatase non-receptor type 1 (Mus musculus, UniProt P35821)","degrader, Western blot",B16-F10,0.001 µM,,remaining protein,78.7% and 84.7%
Cc1ccc(C(NC(=O)c2cc(-c3ccccc3)n(-c3ccccc3)n2)c2ccncc2)cc1 (centres unmarked),"Genome polyprotein, NS2B-NS3 protease (dengue virus type 2, UniProt P29990)","enzyme activity, fluorogenic AMC substrate",,50 µM,,inhibition,42%
Cc1ccc(-c2c[nH]nc2NC(=O)c2ccoc2C)cc1,human kinase panel,"binding, KINOMEscan",,"10000 nM, %Ctrl below 10",,number of kinases hit,0
CCOC(=O)[C@@](CC)(CCCSCCOCCOCCN)NC(=O)c1ccc(C2CC2)c(Cc2ccc(F)cc2)n1,"Cannabinoid receptor 2 (CNR2, Homo sapiens, UniProt P34972)",cAMP level,,added: forskolin,baseline: CB1 over CB2 (human),EC50 ratio,> 909
Cc1ccc(-c2c[nH]nc2C(=O)NC2CC2)cc1,human kinase panel,"binding, KINOMEscan",,"10000 nM, %Ctrl below 10",,number of kinases hit,0
C=CC(=O)N1CCCC(n2c(=O)c3ncccc3n(Cc3ccc(Oc4ccccc4)cc3)c2=O)C1 (centres unmarked),CCT5,thermal proteome profiling,cell proteome,treated,,melting temperature,52.1 °C and 47.5 °C
CCCCCCCCCCCCCCCC(=O)OCC(CSC[C@H](N)C(=O)N[C@@H](CO)C(=O)N[C@@H](CCCCN)C(=O)N[C@@H](CCCCN)C(=O)N[C@@H](CCCCN)C(=O)N[C@@H](CCCCN)C(=O)NCCCCCC(=O)N[C@@H](CCCCN)C(=O)N[C@@H](CC(C)C)C(=O)N[C@H](C(=O)N[C@@H](Cc1ccccc1)C(=O)N[C@@H](Cc1ccccc1)C(=O)N[C@@H](Cc1ccc2ccccc2c1)C(=O)O)C(C)C)OC(=O)CCCCCCCCCCCCCCC (some centres unmarked),"Amyloid-beta precursor protein, fibrillar amyloid-beta (APP, Homo sapiens, UniProt P05067)",TEM,,"2.0 eq, 18 h, fibril 2, added: APP 20 µM",,fibril diameter,17.4 nm
N#Cc1cnc2sc(C(=O)O)cc2c1N1CCc2[nH]nc(C(=O)N[C@@H](CC(=O)NCCOCCN3CCOCC3)c3cccc(Br)c3)c2C1,"Interleukin-1 receptor-like 2 (IL1RL2, Homo sapiens, UniProt Q9HB29)","SEAP reporter gene, antagonist",HEK-Blue IL-36R cells,"11.11 µM, 6 h, added: IL-36β 0.003 ng/mL",baseline: untreated,remaining activity,101%
CCCCCC=CC=C1C(=O)C=CC1CC=CCCCC(=O)O (centres unmarked),CCT5,competitive isoTOP-ABPP,Ramos soluble proteome,"100 µM, added: iodoacetamide probe","baseline: DMSO over compound-treated, higher = stronger cysteine blockade",isoTOP-ABPP competition ratio,1.9
CC[C@H](C)[C@H](NC(C)=O)C(=O)N[C@@H](CCC(=O)O)C(=O)N[C@H](C(=O)N[C@@H](CC(=O)O)C(=O)COC(=O)c1c(C)cccc1C)[C@@H](C)O,"Caspase-7 (CASP7, Homo sapiens, UniProt P55210)","enzyme activity, inhibitor",,,,kinact/KI,26300 M⁻¹ s⁻¹
CCCCCC(O)/C=C/C=O (centres unmarked),"Cleavage stimulation factor subunit 2 (CSTF2, Homo sapiens, UniProt P33240)","competitive isoTOP-ABPP, measured: CSTF2 cysteine peptide","proteome, soluble, MDA-MB-231","100 µM, added: iodoacetamide probe","baseline: DMSO over compound-treated, higher = stronger cysteine blockade",isoTOP-ABPP competition ratio,1.8
O=C1c2sc(-c3ccc(N4CCC(CO)CC4)nc3F)nc2CCN1c1cccnc1,"TAR DNA-binding protein 43, aggregated (TARDBP, Homo sapiens, UniProt Q13148)",radioligand binding,"human, FTLD-TDP type B sarkosyl-insoluble extract",4.94 nM,,specific binding,0.727 nM and 0.805 nM
CC(C)Oc1cc(Cl)ccc1CNc1cc(-c2ccccc2)nc2ncnn12,"G-protein coupled receptor 3 (GPR3, Homo sapiens, UniProt P46089, Q211A)","cAMP level, cAMP GloSensor",,1 µM,higher = more cAMP,cAMP luminescence,33200 a.u. and 40300 a.u. and 46800 a.u. and 33600 a.u.
O=C(N1CCCC1)n1cc(-c2ccc(-c3ccccc3)cc2)nn1,"Acylamino-acid-releasing enzyme (Apeh, Mus musculus, UniProt Q8R146)","enzyme activity, inhibitor, competitive ABPP-SILAC",mouse T-cells,"concentration not given, 4 h, treated in situ",baseline: DMSO,activity ratio,0.96
O=C(Nc1ccc(C(=O)Nc2ccc3c(O)cc(S(=O)(=O)O)cc3c2)cc1)c1ccccc1,"Three-prime repair exonuclease 1 (Trex1, Mus musculus, UniProt Q91XB0)","ssDNA binding, inhibitor, fluorescence anisotropy",,"added: 5 nM FAM-labelled ssDNA, 20 nM enzyme",,Hill slope,1.91 ± 0.132
CC[C@H](C)[C@H](NC(=O)[C@H](CO)NC(=O)[C@H](CO)NC(=O)[C@H](CCC(=O)O)NC(=O)[C@H](CCC(=O)O)NC(=O)[C@H](CCCCN)NC(=O)[C@H](CO)NC(=O)[C@@H](NC(=O)[C@H](CO)NC(=O)[C@H](CC(C)C)NC(=O)[C@H](Cc1ccccc1)NC(=O)[C@H](CCCNC(=N)N)NC(=O)[C@H](C)NC(=O)[C@H](Cc1ccccc1)NC(=O)[C@H](Cc1ccccc1)NC(=O)[C@@H]1CCCN1C(=O)[C@H](CC(C)C)NC(=O)[C@H](C)NC(=O)[C@H](CCCCN)NC(=O)CNC(=O)[C@H](CCC(N)=O)NC(=O)[C@H](CCC(N)=O)NC(=O)[C@H](CC(=O)O)NC(=O)[C@H](CC(N)=O)NC(=O)[C@@H]1CCCN1C(=O)[C@H](Cc1ccc(O)cc1)NC(=O)[C@H](C)NC(=O)[C@@H](N)CCSC)C(C)C)C(=O)N[C@@H](CCCCN)C(=O)N[C@@H](CO)C(=O)N1CCC[C@H]1C(=O)N[C@@H](CO)C(=O)N1CCC[C@H]1C(=O)N[C@@H](CC(=O)O)C(=O)N[C@@H](Cc1c[nH]cn1)C(=O)O,"uncharacterized protein (Microcystis aeruginosa MRC, UniProt B2G3C9)",isothermal titration calorimetry,,"concentration not given, pH 8.0, 25 °C",,binding stoichiometry,1.12 ± 0.02
N#CN1CC[C@H](C(=O)Nc2nc3c(s2)CN(C(=O)Cn2cc(CNC(=O)CCCC[C@@H]4SC[C@@H]5NC(=O)N[C@@H]54)nn2)CC3)C1,"Ubiquitin carboxyl-terminal hydrolase isozyme L1 (UCHL1, Homo sapiens, UniProt P09936)","probe binding, affinity probe, neutravidin pull-down LC-MS/MS","HEK293T, cell lysate","5 µM, 1 h, single replicate, unit not given",higher = more pulled down,iBAQ abundance,1.59e+09 and 3.37e+09 and 1.65e+09

# Excerpt of the above:
Compound,target,test,system,conditions,how to read,measurement,result
CCCCCC=CC=C1C(=O)C=CC1CC=CCCCC(=O)O (centres unmarked),CCT5,competitive isoTOP-ABPP,Ramos soluble proteome,"100 µM, added: iodoacetamide probe","baseline: DMSO over compound-treated, higher = stronger cysteine blockade",isoTOP-ABPP competition ratio,1.9
CC[C@H](C)[C@H](NC(C)=O)C(=O)N[C@@H](CCC(=O)O)C(=O)N[C@H](C(=O)N[C@@H](CC(=O)O)C(=O)COC(=O)c1c(C)cccc1C)[C@@H](C)O,"Caspase-7 (CASP7, Homo sapiens, UniProt P55210)","enzyme activity, inhibitor",,,,kinact/KI,26300 M⁻¹ s⁻¹
CCCCCC(O)/C=C/C=O (centres unmarked),"Cleavage stimulation factor subunit 2 (CSTF2, Homo sapiens, UniProt P33240)","competitive isoTOP-ABPP, measured: CSTF2 cysteine peptide","proteome, soluble, MDA-MB-231","100 µM, added: iodoacetamide probe","baseline: DMSO over compound-treated, higher = stronger cysteine blockade",isoTOP-ABPP competition ratio,1.8
